Measured values from different studies.
Every numbered part comes from another study and shows a few of its results, in no order.
Chain of UniProt P35367 (whole entry, looked up): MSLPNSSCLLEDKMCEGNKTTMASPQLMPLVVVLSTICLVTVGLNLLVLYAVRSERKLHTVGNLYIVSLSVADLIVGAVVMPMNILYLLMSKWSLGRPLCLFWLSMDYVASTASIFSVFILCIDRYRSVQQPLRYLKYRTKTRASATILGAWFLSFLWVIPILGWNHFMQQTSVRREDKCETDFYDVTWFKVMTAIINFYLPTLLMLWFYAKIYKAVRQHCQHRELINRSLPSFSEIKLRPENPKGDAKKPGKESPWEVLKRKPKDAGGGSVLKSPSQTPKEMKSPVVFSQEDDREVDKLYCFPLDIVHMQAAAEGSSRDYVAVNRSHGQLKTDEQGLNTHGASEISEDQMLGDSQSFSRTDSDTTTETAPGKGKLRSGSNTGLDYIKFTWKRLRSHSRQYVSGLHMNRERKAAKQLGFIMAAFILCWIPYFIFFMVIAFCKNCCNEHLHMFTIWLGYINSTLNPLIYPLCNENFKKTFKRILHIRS
Chain of UniProt P50406 (whole entry, looked up): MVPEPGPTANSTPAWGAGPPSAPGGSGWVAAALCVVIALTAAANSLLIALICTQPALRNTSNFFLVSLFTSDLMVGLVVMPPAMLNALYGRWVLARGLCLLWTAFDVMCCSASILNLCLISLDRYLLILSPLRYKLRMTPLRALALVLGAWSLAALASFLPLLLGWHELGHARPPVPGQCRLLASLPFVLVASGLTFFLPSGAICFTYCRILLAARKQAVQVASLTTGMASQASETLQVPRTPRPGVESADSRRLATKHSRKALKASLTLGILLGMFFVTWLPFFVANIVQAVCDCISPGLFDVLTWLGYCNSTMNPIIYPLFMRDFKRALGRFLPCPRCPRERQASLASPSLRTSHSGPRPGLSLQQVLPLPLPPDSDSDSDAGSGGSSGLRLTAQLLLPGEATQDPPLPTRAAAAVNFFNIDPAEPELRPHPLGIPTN
Chain of UniProt Q99720 (whole entry, looked up): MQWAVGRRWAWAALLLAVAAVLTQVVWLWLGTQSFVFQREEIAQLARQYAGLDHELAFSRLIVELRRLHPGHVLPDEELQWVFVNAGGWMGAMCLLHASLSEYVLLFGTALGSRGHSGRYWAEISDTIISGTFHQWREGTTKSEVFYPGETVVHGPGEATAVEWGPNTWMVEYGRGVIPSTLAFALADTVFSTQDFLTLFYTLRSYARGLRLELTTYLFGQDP
Chain of UniProt P07550 (whole entry, looked up): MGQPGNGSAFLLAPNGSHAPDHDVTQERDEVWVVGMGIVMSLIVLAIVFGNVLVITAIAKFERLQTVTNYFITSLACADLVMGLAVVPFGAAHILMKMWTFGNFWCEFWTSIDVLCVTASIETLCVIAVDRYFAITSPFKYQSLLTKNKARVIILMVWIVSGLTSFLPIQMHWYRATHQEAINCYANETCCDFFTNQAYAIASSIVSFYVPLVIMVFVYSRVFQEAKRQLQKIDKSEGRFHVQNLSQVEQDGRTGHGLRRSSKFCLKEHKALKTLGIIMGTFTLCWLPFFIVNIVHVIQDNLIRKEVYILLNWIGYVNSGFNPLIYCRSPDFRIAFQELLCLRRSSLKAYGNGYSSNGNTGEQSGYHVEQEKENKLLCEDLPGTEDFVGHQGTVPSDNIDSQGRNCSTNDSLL
Chain of UniProt P35368 (whole entry, looked up): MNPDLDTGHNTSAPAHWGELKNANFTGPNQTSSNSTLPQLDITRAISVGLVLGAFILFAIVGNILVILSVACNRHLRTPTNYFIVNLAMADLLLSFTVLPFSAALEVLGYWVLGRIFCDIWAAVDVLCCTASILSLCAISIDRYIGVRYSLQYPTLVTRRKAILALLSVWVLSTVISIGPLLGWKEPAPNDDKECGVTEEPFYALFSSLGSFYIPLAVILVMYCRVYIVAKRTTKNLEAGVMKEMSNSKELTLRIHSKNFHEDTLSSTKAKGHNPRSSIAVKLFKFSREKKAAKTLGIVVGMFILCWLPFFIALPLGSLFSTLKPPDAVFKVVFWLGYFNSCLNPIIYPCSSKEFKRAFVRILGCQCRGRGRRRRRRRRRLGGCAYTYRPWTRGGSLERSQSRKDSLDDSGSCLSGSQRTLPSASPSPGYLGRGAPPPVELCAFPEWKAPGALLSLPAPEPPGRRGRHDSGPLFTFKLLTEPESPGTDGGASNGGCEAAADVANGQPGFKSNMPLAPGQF
Chain of UniProt P08172 (whole entry, looked up): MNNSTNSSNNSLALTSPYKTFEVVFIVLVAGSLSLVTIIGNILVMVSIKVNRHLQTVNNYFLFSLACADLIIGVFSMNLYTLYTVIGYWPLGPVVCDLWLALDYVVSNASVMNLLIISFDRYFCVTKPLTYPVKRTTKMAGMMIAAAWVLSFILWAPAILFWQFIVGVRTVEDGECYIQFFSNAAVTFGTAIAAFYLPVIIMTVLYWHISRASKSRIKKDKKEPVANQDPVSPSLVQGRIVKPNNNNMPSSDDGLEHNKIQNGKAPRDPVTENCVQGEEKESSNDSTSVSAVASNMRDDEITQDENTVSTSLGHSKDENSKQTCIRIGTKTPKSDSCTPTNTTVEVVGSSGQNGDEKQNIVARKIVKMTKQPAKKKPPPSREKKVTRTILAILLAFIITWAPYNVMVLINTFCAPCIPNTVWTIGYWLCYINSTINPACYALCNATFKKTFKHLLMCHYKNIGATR
Chain of UniProt P21917 (whole entry, looked up): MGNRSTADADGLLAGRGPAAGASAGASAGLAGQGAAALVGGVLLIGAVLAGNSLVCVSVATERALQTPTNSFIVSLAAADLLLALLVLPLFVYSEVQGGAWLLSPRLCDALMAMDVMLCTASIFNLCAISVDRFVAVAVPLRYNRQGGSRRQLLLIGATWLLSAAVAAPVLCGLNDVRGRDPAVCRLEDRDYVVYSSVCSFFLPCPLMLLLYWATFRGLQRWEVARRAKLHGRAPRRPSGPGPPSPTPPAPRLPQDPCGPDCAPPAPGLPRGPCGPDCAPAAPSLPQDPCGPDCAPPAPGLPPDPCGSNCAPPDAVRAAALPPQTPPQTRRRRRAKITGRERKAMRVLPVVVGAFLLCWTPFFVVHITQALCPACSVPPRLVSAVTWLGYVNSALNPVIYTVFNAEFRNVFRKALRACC
Chain of UniProt P34969 (whole entry, looked up): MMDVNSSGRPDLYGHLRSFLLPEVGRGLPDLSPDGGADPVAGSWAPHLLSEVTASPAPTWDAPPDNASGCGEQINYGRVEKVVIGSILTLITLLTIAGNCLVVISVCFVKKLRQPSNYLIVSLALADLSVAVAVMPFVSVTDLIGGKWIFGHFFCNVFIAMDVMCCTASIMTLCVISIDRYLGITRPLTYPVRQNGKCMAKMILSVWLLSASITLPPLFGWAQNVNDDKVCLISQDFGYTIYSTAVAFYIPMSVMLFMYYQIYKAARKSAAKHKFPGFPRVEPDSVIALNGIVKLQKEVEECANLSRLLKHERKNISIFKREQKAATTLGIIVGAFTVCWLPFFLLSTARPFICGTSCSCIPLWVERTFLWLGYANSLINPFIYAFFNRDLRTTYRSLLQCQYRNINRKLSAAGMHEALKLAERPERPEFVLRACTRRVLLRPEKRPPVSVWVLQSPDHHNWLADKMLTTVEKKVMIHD
Chain of UniProt Q5BJF2 (whole entry, looked up): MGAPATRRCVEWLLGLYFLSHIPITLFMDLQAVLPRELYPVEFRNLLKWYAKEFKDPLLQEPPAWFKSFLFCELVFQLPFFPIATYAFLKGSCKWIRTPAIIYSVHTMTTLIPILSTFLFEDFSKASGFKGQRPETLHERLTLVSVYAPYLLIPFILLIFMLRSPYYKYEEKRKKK
Chain of UniProt P18825 (whole entry, looked up): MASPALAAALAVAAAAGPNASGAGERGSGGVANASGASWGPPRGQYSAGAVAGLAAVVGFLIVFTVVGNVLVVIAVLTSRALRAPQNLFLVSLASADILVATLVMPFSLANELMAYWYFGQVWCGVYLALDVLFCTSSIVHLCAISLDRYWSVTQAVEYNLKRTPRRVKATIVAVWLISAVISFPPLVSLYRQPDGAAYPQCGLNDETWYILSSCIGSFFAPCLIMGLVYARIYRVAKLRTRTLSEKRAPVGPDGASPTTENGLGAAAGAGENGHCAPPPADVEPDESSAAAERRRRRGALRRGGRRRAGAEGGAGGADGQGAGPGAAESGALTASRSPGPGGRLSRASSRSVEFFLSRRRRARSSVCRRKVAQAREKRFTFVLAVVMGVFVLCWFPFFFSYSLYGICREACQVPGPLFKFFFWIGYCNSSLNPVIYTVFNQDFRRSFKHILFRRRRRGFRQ
Chain of UniProt Q9H3N8 (whole entry, looked up): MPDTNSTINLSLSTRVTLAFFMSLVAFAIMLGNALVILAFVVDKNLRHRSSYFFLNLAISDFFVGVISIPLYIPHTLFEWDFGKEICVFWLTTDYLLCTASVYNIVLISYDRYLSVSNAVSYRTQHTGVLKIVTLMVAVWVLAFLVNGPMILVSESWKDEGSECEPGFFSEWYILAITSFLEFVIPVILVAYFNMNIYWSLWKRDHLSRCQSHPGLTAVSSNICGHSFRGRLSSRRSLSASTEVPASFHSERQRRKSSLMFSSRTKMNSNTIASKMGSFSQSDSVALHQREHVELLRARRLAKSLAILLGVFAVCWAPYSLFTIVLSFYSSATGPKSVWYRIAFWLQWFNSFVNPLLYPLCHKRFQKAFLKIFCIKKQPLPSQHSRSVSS

Sample 1
Species: human
Medium: microsomes or S9
Tested at: 2 µM
Time: 0.5 h
Measurement: remaining compound
O=S(=O)(Nc1cc(-c2cccs2)n[nH]1)c1c[nH]c2ncccc12: 22.9%
COc1cc2c(cc1OC)-c1cc(-c3cc(C#N)n(C)c3C)c(C#N)c(=N)n1CC2: 92.3%
Cn1cc(-c2cc3n(n2)CCC(=O)N3CCCC(=O)N2CCN(c3ccccn3)CC2)c2ccccc21: 5.87%
CC(NS(C)(=O)=O)c1nnc(N2CCC(C(C)(C)C)C2)n1CC1CCCCO1 (stereo not shown): 22%
Cn1c2c(c(=O)c3cc(Oc4ccccc4)ccc31)CCC2: 13%
Cn1cc(-c2nn(S(=O)(=O)c3ccc(Br)s3)c(-c3cnn(C)c3)c2Cl)cn1: 0.412%
CN(C(=O)CN(c1ccc(Cl)c(Cl)c1)S(C)(=O)=O)C(CN1CCCC1)c1ccc(-c2ccnc(Cl)c2)cc1 (stereo not shown): 31.2%
CCCC(=O)N(Cc1cc2ccc(C)cc2[nH]c1=O)C(C)(C)C: 49.2%
Cc1ccc(CNC(=O)N2Cc3c(sc4c3CCCC4)-n3cccc3C2C(C)C)cc1 (stereo not shown): 1.3%
O=C(O)c1sc(C(=O)O)c(OCCO)c1OCCO: 58.1%
O=C(O)C(c1c[nH]c2ccccc12)N1CCN(CC(=O)N2CCCCCC2)CC1 (stereo not shown): 93.9%
CCN(CC(=O)NC)C(=O)c1cc(C)c(C)c(S(=O)(=O)NC)c1: 80.5%
O=C(O)C1C(c2ccccc2)C(C(=O)O)C1c1ccccc1 (stereo not shown): 91.8%

Sample 2
Compound: CC(=O)C1=C(C)N(c2cccc(C(F)(F)F)c2)C(=O)N[C@H]1c1ccc(C#N)nc1
Tested at: 10 µM
Measurement: inhibition
HRH4 (Homo sapiens, UniProt Q9H3N8); ligand displacement: -0.78%
ADRB2 (Homo sapiens, UniProt P07550); ligand displacement: 21.6%
HTR6 (Homo sapiens, UniProt P50406); ligand displacement: 14.9%
DRD4 (Homo sapiens, UniProt P21917); ligand displacement: 5.84%
CHRM2 (Homo sapiens, UniProt P08172); ligand displacement: -9.21%
ADRA1B (Homo sapiens, UniProt P35368); ligand displacement: -8.1%
SIGMAR1 (Homo sapiens, UniProt Q99720); ligand displacement: -15.5%
TMEM97 (Homo sapiens, UniProt Q5BJF2); ligand displacement: 20.9%
HTR3A (Homo sapiens, UniProt P46098); cell-free assay: 23.7%
HRH1 (Homo sapiens, UniProt P35367); ligand displacement: 5.28%
CHRM5 (Homo sapiens, UniProt P08912); ligand displacement: 2.19%
HTR7 (Homo sapiens, UniProt P34969); ligand displacement: 13.9%
ADRA2C (Homo sapiens, UniProt P18825); ligand displacement: 11%

Sample 3
Cell line: Huh-7
Tested at: 10 µM
Time: 24 h
Measurement: viability
Oc1ccc(Cl)c2cccnc12: 68.4%
CCN(CC)C(=O)c1ccc(O)c(OC)c1: 96.5%
CCN(CC)CCNC(=O)COc1ccc(OC)cc1: 100%
CCCN1C[C@H](CSC)C[C@@H]2c3cccc4[nH]cc(c34)C[C@H]21: 97.8%
C#C[C@]1(OC(C)=O)CC[C@H]2[C@@H]3CCC4=C[C@@H](OC(C)=O)CC[C@@H]4[C@H]3CC[C@@]21C: 97.4%
CN(C)CCCN1c2ccccc2CCc2ccccc21: 88.3%
Nc1ccc(S(=O)(=O)c2ccc(N)cc2)cc1: 104%
CC1(C)[C@@H](OC(=O)CCC(=O)O)CC[C@]2(C)[C@H]3C(=O)C=C4[C@@H]5C[C@@](C)(C(=O)O)CC[C@]5(C)CC[C@@]4(C)[C@]3(C)CC[C@@H]12: 97.3%
CN(C)CC[C@@H](c1ccc(Cl)cc1)c1ccccn1: 89.2%
O=C(O)c1cc(-c2ccc(F)cc2F)ccc1O: 97.5%
C=CC[C@@H]1/C=C(\C)C[C@H](C)C[C@H](OC)[C@H]2O[C@@](O)(C(=O)C(=O)N3CCCC[C@H]3C(=O)O[C@H](/C(C)=C/[C@@H]3CC[C@@H](O)[C@H](OC)C3)[C@H](C)[C@@H](O)CC1=O)[C@H](C)C[C@@H]2OC: 97.6%
CO[C@@]12[C@H](COC(N)=O)C3=C(C(=O)C(C)=C(N)C3=O)N1C[C@@H]1N[C@@H]12: 56.6%
Nc1nc2c(ncn2COCCO)c(=O)[nH]1: 107%
CO/N=C(\C(=O)N[C@@H]1C(=O)N2C(C(=O)O)=C(COC(N)=O)CS[C@H]12)c1ccco1: 100%
O=C1O[C@H](CO)[C@@H](O)[C@H](O)[C@H]1O: 91.3%
CCOC(=O)[N-]c1cn(N2CCOCC2)n[o+]1: 93.9%
C[C@]12CC[C@@H]3c4ccc(O)cc4CC[C@H]3[C@@H]1CCC2=O: 91.9%
CC(C)NCC(O)c1ccc(O)c(O)c1 (stereo not shown): 101%

Sample 4
Target: MAP kinase-interacting serine/threonine-protein kinase 1 (MKNK1, Homo sapiens, UniProt Q9BUB5)
Chain of UniProt Q9BUB5 (whole entry, looked up): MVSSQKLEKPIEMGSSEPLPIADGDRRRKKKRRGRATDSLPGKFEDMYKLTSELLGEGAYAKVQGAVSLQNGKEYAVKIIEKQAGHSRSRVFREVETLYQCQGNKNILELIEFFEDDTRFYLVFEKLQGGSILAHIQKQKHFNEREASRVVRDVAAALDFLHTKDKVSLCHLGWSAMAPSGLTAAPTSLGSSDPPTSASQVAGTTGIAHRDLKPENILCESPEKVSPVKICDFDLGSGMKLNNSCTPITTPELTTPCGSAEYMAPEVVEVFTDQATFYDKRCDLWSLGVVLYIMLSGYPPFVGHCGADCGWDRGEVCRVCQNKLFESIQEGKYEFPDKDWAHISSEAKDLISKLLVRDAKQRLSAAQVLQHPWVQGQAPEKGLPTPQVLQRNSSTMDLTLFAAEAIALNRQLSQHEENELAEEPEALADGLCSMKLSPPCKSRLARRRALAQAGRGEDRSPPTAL
Read-out: enzyme activity
Action: inhibitor
Tested at: 0.5 µM
Reference: control
Measurement: remaining activity
c1cc(-c2cnn3cc(-c4ccc(OCCN5CCCCC5)cc4)cnc23)ccn1: 40.4%
N#C/C(=C(/N)SC1C=CC=CC1)c1cccc(C(O)c2ccncc2)c1 (stereo not shown): 109%
FC(F)(F)c1ccc(/C=C/c2nc(COc3ccc(CCCCn4ccnn4)cc3)co2)cc1: 89.5%
O=C1c2ccccc2-c2nc3nnnn3nc21: 79.3%
CNc1cc2c(Nc3cccc(Br)c3)ncnc2cn1: 55.2%
Clc1ccc(Nc2nnc(Cc3ccncc3)c3ccccc23)cc1: 98.5%
COc1cc2c(N3CCN(C(=O)Nc4ccc(OC(C)C)cc4)CC3)ncnc2cc1OCCCN1CCCCC1: 89.7%
O=C1NC(=O)/C(=C/c2ccc3c(c2)OC(F)(F)O3)S1: 93.1%
Nc1nc(Nc2ccc(S(N)(=O)=O)cc2)nn1C(=S)Nc1c(F)cccc1F: 23.4%
COc1cc2c(Nc3ccc(Br)cc3F)ncnc2cc1OCC1CCN(C)CC1: 49.3%
CCN(CC)CCCCN1c2ccccc2Oc2ccc(Cl)cc21: 95.6%
CCCCc1c(-c2ccc(O)cc2)[nH]c2nccnc12: 94.5%
CC(C)(C)c1nc2c3cc[nH]c(=O)c3c3cc(F)ccc3c2[nH]1: 101%
N#CC(c1ccnc(NCCc2cccnc2)n1)c1nc2ccccc2s1 (stereo not shown): 90.2%
O=Nc1c(-c2c(O)[nH]c3ccccc23)[nH]c2ccccc12: 99.6%
O=C(O)/C=C/c1cc(Br)c(Br)c(Br)c1Br: 61.1%
CC(C)N(CCC(=O)c1ccc2ccccc2c1)Cc1ccccc1: 105%
O=c1c(-c2ccc(F)cc2)c(-c2ccncc2)[nH]n1-c1ccc(Cl)cc1: 93.9%
CC(C)n1cnc2c(Nc3cccc(Cl)c3)nc(NCCO)nc21: 98.7%
O=C(c1ccccc1)c1ccc(N2CCOCC2)cc1O: 103%
NC(=O)c1cccc(-c2cc(Nc3ccc(OC(F)(F)F)cc3)ncn2)c1: 95.9%
NC(=O)c1ccc(-c2nc(-c3ccc4c(c3)OCCO4)c(-c3ccccn3)[nH]2)cc1: 101%
C[C@@H](N)[C@H]1CC[C@H](C(=O)Nc2ccncc2)CC1: 95%

A few entries again (sample 2):
ADRA2C (Homo sapiens, UniProt P18825); ligand displacement: 11%
ADRB2 (Homo sapiens, UniProt P07550); ligand displacement: 21.6%
HRH4 (Homo sapiens, UniProt Q9H3N8); ligand displacement: -0.78%
CHRM2 (Homo sapiens, UniProt P08172); ligand displacement: -9.21%
CHRM5 (Homo sapiens, UniProt P08912); ligand displacement: 2.19%
HTR6 (Homo sapiens, UniProt P50406); ligand displacement: 14.9%
